{"data": "Measured values from different studies", "UCHL1": "Ubiquitin carboxyl-terminal hydrolase isozyme L1 (UCHL1, Homo sapiens, UniProt P09936)", "note": "± gives the spread as reported.", "chain of UniProt P09936 (whole entry, looked up)": "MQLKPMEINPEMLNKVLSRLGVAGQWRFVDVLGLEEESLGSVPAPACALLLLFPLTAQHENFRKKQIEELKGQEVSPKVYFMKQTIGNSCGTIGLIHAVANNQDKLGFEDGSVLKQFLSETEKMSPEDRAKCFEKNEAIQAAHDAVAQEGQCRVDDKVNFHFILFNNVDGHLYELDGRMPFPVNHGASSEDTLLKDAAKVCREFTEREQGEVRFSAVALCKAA"}
{"SMILES": "N#C[C@@]1(c2ccc3c(N)ncnn23)O[C@H](CO)[C@@H](O)[C@H]1O", "system": "beagle dog, male, plasma", "conditions": "oral, 6.5 mg/kg, capsule", "quantity": "Cmax", "value": "4580 ng/mL"}
{"SMILES": "O=C(NC[C@H]1CN(c2ccc(N3CCOCC3=O)cc2)C(=O)O1)c1ccc(Cl)s1", "system": "healthy mixed-breed dogs, plasma", "conditions": "oral, 0.5 mg/kg every 12 h for 7 days", "quantity": "Cmax", "value": "161 ± 58 ng/mL"}
{"SMILES": "O=C1NC(=O)c2cc(NC(=O)N3CCSSCC3)ccc21", "tested on": "UCHL1", "assay": "covalent, intact protein LC-MS", "conditions": "12.5 µM", "quantity": "labelling", "value": "13.1%"}
{"SMILES": "N#C[C@@]1(c2ccc3c(N)ncnn23)O[C@H](CO)[C@@H](O)[C@H]1O", "system": "beagle dog male", "conditions": "oral, 100 mg/kg/day, day 14, twice daily repeated dosing", "quantity": "Cmax", "value": "10800 ng/mL"}
{"SMILES": "COc1cc2c3c(n(CCCN4CCOCC4)c(=O)c2cc1OC)-c1cc2c(cc1C3=O)OCO2", "system": "beagle dog, male, plasma", "conditions": "intravenous infusion, 50 mg/m^2, 1 h infusion, vehicle 1", "quantity": "Cmax", "value": "333 ± 43 ng/mL"}
{"SMILES": "CC#CC(=O)N1CCC(CNC(=O)c2cccc(C(F)(F)F)c2)CC1", "tested on": "UCHL1", "assay": "covalent, intact protein LC-MS", "conditions": "12.5 µM", "quantity": "labelling", "value": "15.9%"}
{"SMILES": "COc1ccc(C[C@@H](C)[C@@H](C)Cc2ccc(OC)c(OC)c2)cc1OC", "system": "beagle dog female, plasma", "conditions": "oral, 1000 mg/kg/day, day 28", "quantity": "Cmax", "value": "1590 ± 285 ng/mL"}
{"SMILES": "Cn1c(C(F)(F)F)cc(=O)n(-c2cc(Oc3cccnc3OCC(=O)O)c(Cl)cc2F)c1=O", "system": "beagle dog, male, plasma", "conditions": "oral capsule, 1000 mg/kg/day epyrifenacil, day 1, 90-day study", "quantity": "Cmax", "value": "13600 ng/mL"}
{"SMILES": "COc1ccc(-n2nc(C(N)=O)c3c2C(=O)N(c2ccc(N4CCCCC4=O)cc2)CC3)cc1", "system": "healthy mixed-breed dogs, plasma", "conditions": "oral, 0.5 mg/kg every 12 h for 7 days", "quantity": "Cmax", "value": "822 ± 296 ng/mL"}
{"SMILES": "Cc1nc(-c2cnc(NC(C)C)n(C)c2=O)ccc1Oc1ccnc(-c2cnn(C)c2)c1", "system": "Beagle dog, male, plasma", "conditions": "oral, 10 mg/kg, crossover study, mean", "quantity": "Cmax", "value": "3310 ng/mL"}
